Experimental data pooled from the literature.
Numbered parts are unrelated; each lists some results of a single study.

Series 1
Target: Centromere-binding protein 1, full length, N-terminal tag (CBF1, Saccharomyces cerevisiae, UniProt P17106, residues 1-351)
Sequence of UniProt P17106 (whole entry, looked up): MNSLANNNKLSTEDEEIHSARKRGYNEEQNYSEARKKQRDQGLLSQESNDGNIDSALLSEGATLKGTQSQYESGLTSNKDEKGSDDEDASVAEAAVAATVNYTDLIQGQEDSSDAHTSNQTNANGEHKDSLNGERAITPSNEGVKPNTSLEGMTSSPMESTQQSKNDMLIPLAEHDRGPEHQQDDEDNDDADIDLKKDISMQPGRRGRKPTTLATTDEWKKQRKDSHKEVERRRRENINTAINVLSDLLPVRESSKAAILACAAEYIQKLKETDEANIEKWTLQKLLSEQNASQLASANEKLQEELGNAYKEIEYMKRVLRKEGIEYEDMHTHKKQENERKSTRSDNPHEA
Method: protein-binding microarray
Molecule type: double-stranded DNA, one strand shown
Medium: in vitro
Tested at: 0.8 µM
Notes: whole 60-bp probe, no competitor
Direction: higher = stronger binding
Strand	fluorescence intensity [a.u.]
TGTACGAAGCTATTGAACACGTCTATAGTAGTTAGGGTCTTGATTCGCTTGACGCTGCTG	538
CCTAACTACTATAGCCACGTGCTATAGCTTCGTACAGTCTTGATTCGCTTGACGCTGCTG	6420
CCTAACTACTATAGCCTCGTGGCATAGCTTCGTACAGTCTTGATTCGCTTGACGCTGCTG	578
GAATTCCAAGTGAGTCACCTCTACCGTTGGAACTAGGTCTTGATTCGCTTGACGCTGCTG	487
CTAATACAACAATGTCACCTTACACGAGCAGAGTTCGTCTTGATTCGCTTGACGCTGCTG	566

Series 2
Target: Interferon regulatory factor 5, full length, phosphomimetic (IRF5, Homo sapiens, UniProt Q13568-2, residues 1-514, K96S/S451D/S453D/S456D/S462D)
Method: protein-binding microarray
Molecule type: double-stranded DNA, one strand shown
Medium: in vitro
Tested at: 250 nM
Notes: 60-bp whole probe
Added: salmon DNA 0.4 mg/ml
Baseline: random background probes
Direction: higher = stronger binding
Constant ends, left off below: GCCTAGCAC … GTCTTGATTCGCTTGACGCTGCTG
Strand	log fluorescence [z-score]
GACGATTTCCTTTTCCTGACGTGCTAG	0.742
TCATATTTAGAACTTCTCACTGTGCTA	0.693
GCCATTGTGGATCTTGCAGAGTGCTAG	-0.225
TGAGGTTTCGGTTTCGGTTAGTGCTAG	11.7
GACGGGCTGGACTTTCGGGACGTGCTA	3.53
TTAGGTACCGGGTTTCGGTTAGTGCTA	7.44
GACGCTTTCGGGTTTCGGGACGTGCTA	8.56

Series 3
Target: Sal-like protein 4, full length isoform B (SALL4, Homo sapiens, UniProt Q9UJQ4-2, residues 1-616)
Method: universal PBM
Molecule type: double-stranded DNA, one strand shown
Medium: in vitro
Tested at: not given
Notes: 8-mer, flanks averaged, mean of replicates
Direction: higher = stronger binding
Strand	E-score
GAAGTGAA	0.0923
GCGGAGCA	-0.199
AAATTTCC	0.107
CAGTACGG	-0.015
ATCAATCG	0.115
CGGACCAG	-0.287
CTAACAAG	0.155
CGTATCTC	-0.1

Mixed results
Molecule	target	assay	system	conditions	scale	measurement	value
PhoQ, residues 284 288 289 292 302 303 GTAMQF	PhoP, residues 12 14 15 18 19 MHTVL (Escherichia coli, UniProt P23836)	Sort-seq, refers to: YFP reporter	E. coli	PhoQ-PhoP variant library, added: 10 µM Mg2+	baseline: high Mg2+ state, higher = stronger signaling	fold induction	9.68
